Measurements collected from several papers.
Compare with care: the assays were run in different laboratories. “And” joins repeats or separate records; there may be more than shown. pIC50: −log10 of the molar value.
Cell line: K562

| SMILES | test | test system | setting | how to read | endpoint | value |
| --- | --- | --- | --- | --- | --- | --- |
| CCCCCCCCCCCCCC(=O)O[C@@H]1[C@@H](C)[C@@]2(O)[C@@H](C=C(CO)C[C@]3(O)C(=O)C(C)=C[C@@H]23)[C@@H]2C(C)(C)[C@]12OC(C)=O | flow cytometry |  | concentration not given | reference: cells | S phase cells | 16.6% and 16.1% |
| CN1CCN(C2(CNC3CCN(c4cccc(-c5cc6cc(F)ccc6[nH]5)c4)CC3)CCC2)CC1 |  |  |  |  | GI50 | 205 nM |
| Nc1ncc(-c2nc(N3CCOCC3)nc(N3CCOCC3)n2)c(C(F)F)n1 |  |  | 72 h |  | GI50 | 715 nM |
| COc1c(C)c2c(c(O)c1C/C=C(\C)CCC(=O)O)C(=O)OC2 | cell proliferation | blood cancer |  |  | pIC50 | 6.69 |
| CCN(CC)c1ccc(C=NNC(=O)CSc2nc3ccccc3c(=O)n2Cc2ccc(S(N)(=O)=O)cc2)c(O)c1 |  |  |  |  | CC50 | > 100000 nM |
| Cc1n[nH]c(C)c1CSC1CCCCC1 | cytotoxicity |  |  | reference: IC50 HEK293 over IC50 K562 | selectivity index | 1.5 |
| COc1c(CCC[P+](c2ccccc2)(c2ccccc2)c2ccccc2)cc2c(c1OC)OCO2.[I-] | SRB |  |  |  | TGI | > -4 log M |
| CC(C)N1CCC(NC2CCN(c3cccc(-c4cc5cc(F)ccc5[nH]4)c3)CC2)CC1 |  |  |  |  | GI50 | 218 nM |
| COc1cc(CCC[P+](c2ccccc2)(c2ccccc2)c2ccccc2)c(OC)c2c1OCO2.[I-] | SRB |  |  |  | LC50 | > -4 log M |
| Cc1n[nH]c(C)c1CSCc1ccccc1 | cytotoxicity |  |  | reference: IC50 HEK293 over IC50 K562 | selectivity index | 1.5 |
| Cn1cncc1C1=CN(c2ncnc3[nH]cnc23)CCS1 |  |  | leukemia |  | CC50 | > 200000 nM |

A few entries again:
| SMILES | test | test system | setting | how to read | endpoint | value |
| --- | --- | --- | --- | --- | --- | --- |
| Cc1n[nH]c(C)c1CSCc1ccccc1 | cytotoxicity |  |  | reference: IC50 HEK293 over IC50 K562 | selectivity index | 1.5 |
